Measured values pooled from the literature.
Every numbered part comes from another study and shows a few of its results, in no order.
Chain of UniProt P32298 (whole entry, looked up): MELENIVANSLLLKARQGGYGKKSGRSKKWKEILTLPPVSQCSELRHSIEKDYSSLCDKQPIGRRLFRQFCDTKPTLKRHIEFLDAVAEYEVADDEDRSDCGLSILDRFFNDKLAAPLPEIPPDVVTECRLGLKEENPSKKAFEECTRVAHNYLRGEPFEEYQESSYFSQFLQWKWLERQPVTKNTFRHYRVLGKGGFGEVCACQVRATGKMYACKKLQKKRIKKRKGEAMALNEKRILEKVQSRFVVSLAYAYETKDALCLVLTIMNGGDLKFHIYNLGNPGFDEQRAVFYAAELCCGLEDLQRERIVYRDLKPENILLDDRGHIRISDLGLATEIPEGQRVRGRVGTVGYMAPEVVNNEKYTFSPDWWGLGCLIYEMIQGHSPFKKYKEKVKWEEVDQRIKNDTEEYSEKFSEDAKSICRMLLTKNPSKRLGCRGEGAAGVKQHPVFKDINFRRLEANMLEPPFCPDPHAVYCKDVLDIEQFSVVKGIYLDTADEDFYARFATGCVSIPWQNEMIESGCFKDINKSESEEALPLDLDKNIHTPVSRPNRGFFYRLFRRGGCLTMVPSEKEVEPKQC
Chain of UniProt Q16288 (whole entry, looked up): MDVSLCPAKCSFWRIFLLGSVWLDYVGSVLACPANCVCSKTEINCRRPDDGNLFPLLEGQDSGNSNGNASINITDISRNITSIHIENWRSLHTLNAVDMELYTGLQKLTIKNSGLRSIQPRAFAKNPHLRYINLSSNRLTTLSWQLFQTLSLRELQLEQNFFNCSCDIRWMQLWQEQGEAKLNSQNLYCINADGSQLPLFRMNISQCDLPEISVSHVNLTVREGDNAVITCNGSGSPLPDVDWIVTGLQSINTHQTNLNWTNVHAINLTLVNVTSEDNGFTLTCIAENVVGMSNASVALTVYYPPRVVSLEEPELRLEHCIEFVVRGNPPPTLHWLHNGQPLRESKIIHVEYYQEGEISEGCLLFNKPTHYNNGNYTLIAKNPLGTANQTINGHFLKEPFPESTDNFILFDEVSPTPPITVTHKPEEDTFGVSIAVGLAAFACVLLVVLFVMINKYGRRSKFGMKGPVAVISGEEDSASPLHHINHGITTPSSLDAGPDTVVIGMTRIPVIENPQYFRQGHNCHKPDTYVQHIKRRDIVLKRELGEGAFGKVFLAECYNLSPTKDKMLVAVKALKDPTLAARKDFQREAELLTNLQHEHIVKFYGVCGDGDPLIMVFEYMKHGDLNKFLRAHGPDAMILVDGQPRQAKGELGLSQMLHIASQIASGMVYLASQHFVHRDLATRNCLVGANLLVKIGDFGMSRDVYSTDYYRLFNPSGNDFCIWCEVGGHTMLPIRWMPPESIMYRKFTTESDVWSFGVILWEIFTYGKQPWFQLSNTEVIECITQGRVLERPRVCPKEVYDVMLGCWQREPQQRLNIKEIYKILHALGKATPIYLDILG
Chain of UniProt P49761 (whole entry, looked up): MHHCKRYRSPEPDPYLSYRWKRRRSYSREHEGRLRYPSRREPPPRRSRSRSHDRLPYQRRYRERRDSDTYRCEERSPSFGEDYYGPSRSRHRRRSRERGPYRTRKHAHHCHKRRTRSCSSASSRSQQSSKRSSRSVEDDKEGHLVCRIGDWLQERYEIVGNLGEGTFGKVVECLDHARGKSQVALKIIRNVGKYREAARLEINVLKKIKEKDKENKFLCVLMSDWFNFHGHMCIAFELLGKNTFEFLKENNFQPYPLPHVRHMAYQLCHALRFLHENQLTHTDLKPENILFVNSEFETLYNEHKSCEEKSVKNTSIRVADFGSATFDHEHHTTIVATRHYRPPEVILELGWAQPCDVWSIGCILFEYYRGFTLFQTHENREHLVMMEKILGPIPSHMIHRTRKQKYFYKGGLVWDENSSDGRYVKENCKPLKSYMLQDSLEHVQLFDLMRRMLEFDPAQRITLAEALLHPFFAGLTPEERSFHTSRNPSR
Chain of UniProt Q8IWQ3 (whole entry, looked up): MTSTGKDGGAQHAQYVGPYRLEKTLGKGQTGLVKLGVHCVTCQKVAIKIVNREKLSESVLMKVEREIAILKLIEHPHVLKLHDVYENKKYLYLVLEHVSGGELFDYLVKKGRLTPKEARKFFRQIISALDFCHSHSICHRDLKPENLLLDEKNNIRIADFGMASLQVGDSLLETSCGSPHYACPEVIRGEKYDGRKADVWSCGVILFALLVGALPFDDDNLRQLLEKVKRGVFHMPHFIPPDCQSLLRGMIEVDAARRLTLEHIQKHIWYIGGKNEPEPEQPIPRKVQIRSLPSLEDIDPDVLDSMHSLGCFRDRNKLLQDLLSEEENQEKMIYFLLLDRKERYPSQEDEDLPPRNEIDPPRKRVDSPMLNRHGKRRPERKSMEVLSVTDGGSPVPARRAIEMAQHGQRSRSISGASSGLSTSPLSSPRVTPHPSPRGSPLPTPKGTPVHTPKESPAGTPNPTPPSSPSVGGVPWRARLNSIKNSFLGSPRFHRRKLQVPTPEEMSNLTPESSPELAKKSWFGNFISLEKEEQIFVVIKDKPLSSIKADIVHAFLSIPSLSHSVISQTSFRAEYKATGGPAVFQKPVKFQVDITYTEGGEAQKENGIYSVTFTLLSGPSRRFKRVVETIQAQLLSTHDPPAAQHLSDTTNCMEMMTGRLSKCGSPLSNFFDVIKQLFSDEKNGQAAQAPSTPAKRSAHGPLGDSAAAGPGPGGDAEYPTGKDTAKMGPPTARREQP
Chain of UniProt Q7KZI7 (whole entry, looked up): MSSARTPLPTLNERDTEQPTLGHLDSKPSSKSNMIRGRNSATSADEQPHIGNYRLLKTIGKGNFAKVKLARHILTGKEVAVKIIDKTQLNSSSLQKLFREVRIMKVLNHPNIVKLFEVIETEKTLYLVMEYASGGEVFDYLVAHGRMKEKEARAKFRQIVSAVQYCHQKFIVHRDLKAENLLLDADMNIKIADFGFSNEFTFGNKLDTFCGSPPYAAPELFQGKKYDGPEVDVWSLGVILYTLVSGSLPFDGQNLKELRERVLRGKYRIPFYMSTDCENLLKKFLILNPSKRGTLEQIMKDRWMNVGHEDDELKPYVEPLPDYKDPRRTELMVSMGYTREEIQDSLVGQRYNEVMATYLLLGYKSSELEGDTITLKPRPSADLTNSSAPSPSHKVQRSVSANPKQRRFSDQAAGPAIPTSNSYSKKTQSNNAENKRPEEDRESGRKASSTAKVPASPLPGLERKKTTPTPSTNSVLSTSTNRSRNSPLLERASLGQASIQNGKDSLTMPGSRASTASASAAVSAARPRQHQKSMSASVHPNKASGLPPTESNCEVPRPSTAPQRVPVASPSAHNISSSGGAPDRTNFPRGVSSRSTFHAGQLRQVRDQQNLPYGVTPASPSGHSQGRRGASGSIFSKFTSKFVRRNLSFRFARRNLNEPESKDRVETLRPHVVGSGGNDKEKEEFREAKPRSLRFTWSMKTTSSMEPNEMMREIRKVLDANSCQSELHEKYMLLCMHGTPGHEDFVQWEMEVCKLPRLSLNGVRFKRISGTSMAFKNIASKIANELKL
Chain of UniProt O96017 (whole entry, looked up): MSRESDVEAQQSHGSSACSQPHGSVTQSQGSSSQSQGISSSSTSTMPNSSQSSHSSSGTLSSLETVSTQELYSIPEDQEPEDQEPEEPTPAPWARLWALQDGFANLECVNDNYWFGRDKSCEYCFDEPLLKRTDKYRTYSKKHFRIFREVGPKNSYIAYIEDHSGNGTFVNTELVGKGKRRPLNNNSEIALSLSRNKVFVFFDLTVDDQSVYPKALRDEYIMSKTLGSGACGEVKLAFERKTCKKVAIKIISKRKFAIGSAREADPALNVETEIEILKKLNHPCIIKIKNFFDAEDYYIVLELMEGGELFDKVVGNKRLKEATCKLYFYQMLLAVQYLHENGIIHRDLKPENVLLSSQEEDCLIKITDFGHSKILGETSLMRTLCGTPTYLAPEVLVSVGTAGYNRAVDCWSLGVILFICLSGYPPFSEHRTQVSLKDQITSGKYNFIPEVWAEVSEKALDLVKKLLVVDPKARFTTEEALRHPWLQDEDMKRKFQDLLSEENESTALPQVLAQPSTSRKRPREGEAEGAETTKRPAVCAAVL
Chain of UniProt Q9HAZ1 (whole entry, looked up): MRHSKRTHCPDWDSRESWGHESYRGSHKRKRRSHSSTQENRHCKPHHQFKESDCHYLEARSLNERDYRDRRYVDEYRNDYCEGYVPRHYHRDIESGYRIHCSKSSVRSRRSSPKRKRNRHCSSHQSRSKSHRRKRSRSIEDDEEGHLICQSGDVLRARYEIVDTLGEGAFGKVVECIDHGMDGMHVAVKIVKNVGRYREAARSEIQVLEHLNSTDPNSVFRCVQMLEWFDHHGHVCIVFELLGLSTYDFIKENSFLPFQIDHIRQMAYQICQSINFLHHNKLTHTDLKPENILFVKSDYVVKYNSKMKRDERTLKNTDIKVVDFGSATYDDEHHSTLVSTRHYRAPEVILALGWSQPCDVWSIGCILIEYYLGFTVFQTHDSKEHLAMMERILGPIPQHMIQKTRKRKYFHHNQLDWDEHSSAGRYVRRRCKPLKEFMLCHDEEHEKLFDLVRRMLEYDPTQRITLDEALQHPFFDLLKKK

Block 1
Compound: Cc1ccc(S(=O)(=O)/C=C/C#N)cc1
Read-out: enzyme activity
Mode: inhibitor
Tested at: 0.5 µM
Baseline: control
Quantity: remaining activity
target = RAC-beta serine/threonine-protein kinase (AKT2, Homo sapiens, UniProt P31751); result = 94.9%
target = Misshapen-like kinase 1 (MINK1, Homo sapiens, UniProt Q8N4C8); result = 111%
target = MAP/microtubule affinity-regulating kinase 4 (MARK4, Homo sapiens, UniProt Q96L34); result = 99%
target = Serine/threonine-protein kinase MRCK beta (CDC42BPB, Homo sapiens, UniProt Q9Y5S2); result = 96.4%
target = Dual specificity protein kinase CLK4 (CLK4, Homo sapiens, UniProt Q9HAZ1); result = 89.7%
target = Ribosomal protein S6 kinase alpha-4 (RPS6KA4, Homo sapiens, UniProt O75676); result = 82.8%
target = Tyrosine-protein kinase TXK (TXK, Homo sapiens, UniProt P42681); result = 103%
target = G protein-coupled receptor kinase 4 (GRK4, Homo sapiens, UniProt P32298); result = 96.8%
target = Serine/threonine-protein kinase MARK2 (MARK2, Homo sapiens, UniProt Q7KZI7); result = 84%
target = Dual specificity protein kinase CLK3 (CLK3, Homo sapiens, UniProt P49761); result = 106%
target = Hepatocyte growth factor receptor (MET, Homo sapiens, UniProt P08581); result = 94.7%
target = Cyclin-dependent kinase 9, with cyclin K (CDK9, Homo sapiens, UniProt P50750); result = 112%
target = Calcium/calmodulin-dependent protein kinase type IV (CAMK4, Homo sapiens, UniProt Q16566); result = 96.4%

Block 2
SMILES: CC(=O)Nc1c(C(C)=O)c(=O)n(C)c2nc(-c3ccc(Cl)cc3Cl)c(-c3ccc(Cl)cc3)cc12
Read-out: cell-free assay
Technique: competition with immobilised ligand
Tested at: 1 µM
Quantity: remaining binding
target = Mast/stem cell growth factor receptor Kit, autoinhibited (KIT, Homo sapiens, UniProt P10721); result = 100%
target = Mitogen-activated protein kinase 1 (MAPK1, Homo sapiens, UniProt P28482); result = 100%
target = NT-3 growth factor receptor (NTRK3, Homo sapiens, UniProt Q16288); result = 100%
target = ALK tyrosine kinase receptor (ALK, Homo sapiens, UniProt Q9UM73, L1196M); result = 100%
target = Serine/threonine-protein kinase BRSK2 (BRSK2, Homo sapiens, UniProt Q8IWQ3); result = 100%
target = Ribosomal protein S6 kinase alpha-6, N-terminal kinase domain (RPS6KA6, Homo sapiens, UniProt Q9UK32); result = 88%
target = Serine/threonine-protein kinase WNK1 (WNK1, Homo sapiens, UniProt Q9H4A3); result = 100%
target = Rhodopsin kinase GRK1 (GRK1, Homo sapiens, UniProt Q15835); result = 78%
target = Serine/threonine-protein kinase Chk2 (CHEK2, Homo sapiens, UniProt O96017); result = 100%
target = Calcium/calmodulin-dependent protein kinase type II subunit gamma (CAMK2G, Homo sapiens, UniProt Q13555); result = 100%
target = Transient receptor potential cation channel subfamily M member 6 (TRPM6, Homo sapiens, UniProt Q9BX84); result = 100%

Block 3
Organism: Sarcocystis neurona
Read-out: parasite activity
Tested at: 10 µM
Time: 96 h
Quantity: activity class
Structure (SMILES) = N#Cc1ccc(C(c2ccc(C#N)cc2)n2cncn2)cc1; result = inactive
Structure (SMILES) = CC12CC3CC(C)(C1)CC(N)(C3)C2; result = inactive
Structure (SMILES) = Nc1ccc(S(=O)(=O)c2ccc(N)cc2)cc1; result = inactive
Structure (SMILES) = CCN(CC)C(=S)SSC(=S)N(CC)CC; result = active
Structure (SMILES) = COC(=O)Nc1nc2ccc(C(=O)c3ccccc3)cc2[nH]1; result = inactive
Structure (SMILES) = COc1ccc([C@@H]2Sc3ccccc3N(CCN(C)C)C(=O)[C@@H]2OC(C)=O)cc1; result = inactive
Structure (SMILES) = Nc1ncnc2c1ncn2[C@@H]1O[C@H](CO)[C@@H](O)[C@@H]1O; result = inactive
Structure (SMILES) = CCOc1ccc2ccccc2c1C(=O)N[C@@H]1C(=O)N2[C@@H]1SC(C)(C)[C@@H]2C(=O)O; result = inactive

Block 4
Target: Calcium/calmodulin-dependent protein kinase type II subunit alpha (CAMK2A, Homo sapiens, UniProt Q9UQM7)
Chain of UniProt Q9UQM7 (whole entry, looked up): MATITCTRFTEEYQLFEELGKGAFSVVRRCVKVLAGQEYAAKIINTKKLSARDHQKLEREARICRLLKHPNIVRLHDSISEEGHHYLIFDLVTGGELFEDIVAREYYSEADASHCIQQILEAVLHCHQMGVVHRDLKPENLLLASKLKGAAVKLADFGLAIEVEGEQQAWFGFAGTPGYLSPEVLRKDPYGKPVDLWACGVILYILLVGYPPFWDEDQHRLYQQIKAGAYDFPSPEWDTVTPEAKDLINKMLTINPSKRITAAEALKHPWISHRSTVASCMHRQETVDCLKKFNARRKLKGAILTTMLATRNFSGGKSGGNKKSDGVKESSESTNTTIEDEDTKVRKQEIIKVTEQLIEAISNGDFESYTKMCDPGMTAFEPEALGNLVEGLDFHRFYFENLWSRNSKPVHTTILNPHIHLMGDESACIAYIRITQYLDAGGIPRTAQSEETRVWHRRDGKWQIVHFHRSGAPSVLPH
Read-out: enzyme activity
Mode: inhibitor
Tested at: 10 µM
Quantity: inhibition
Compound = Nc1ccccc1S(=O)(=O)O; result = 1%
Compound = CCCCCCCCCCCCC; result = -18%
Compound = CN1Cc2c(ccc3c2OCO3)[C@@]2(C)[C@@H](O)Cc3cc4c(cc3[C@@H]12)OCO4; result = -2%
Compound = C[C@H]1Oc2cc(cnc2N)-c2c(nn(C)c2C#N)CN(C)C(=O)c2ccc(F)cc21; result = 4%
Compound = CC(C(=O)O)c1ccc2c(c1)CC(=O)c1ccccc1S2 (stereo not drawn); result = -5%
Compound = CC(C)C[C@H](NC(=O)CN)C(=O)O; result = 10%
Compound = NC(=O)c1ccc[n+]([C@@H]2O[C@H](COP(=O)([O-])OP(=O)(O)OC[C@H]3O[C@@H](n4cnc5c(N)ncnc54)[C@H](O)[C@@H]3O)[C@@H](O)[C@H]2O)c1; result = 2%

A few entries again (block 4):
Compound = C[C@H]1Oc2cc(cnc2N)-c2c(nn(C)c2C#N)CN(C)C(=O)c2ccc(F)cc21; result = 4%
Compound = NC(=O)c1ccc[n+]([C@@H]2O[C@H](COP(=O)([O-])OP(=O)(O)OC[C@H]3O[C@@H](n4cnc5c(N)ncnc54)[C@H](O)[C@@H]3O)[C@@H](O)[C@H]2O)c1; result = 2%
Compound = CC(C(=O)O)c1ccc2c(c1)CC(=O)c1ccccc1S2 (stereo not drawn); result = -5%
Compound = CCCCCCCCCCCCC; result = -18%
